# Results pooled from the literature.
# A part holds a random share of what one study measured.
# UniProt Q8WVD5, sequence (whole entry, looked up): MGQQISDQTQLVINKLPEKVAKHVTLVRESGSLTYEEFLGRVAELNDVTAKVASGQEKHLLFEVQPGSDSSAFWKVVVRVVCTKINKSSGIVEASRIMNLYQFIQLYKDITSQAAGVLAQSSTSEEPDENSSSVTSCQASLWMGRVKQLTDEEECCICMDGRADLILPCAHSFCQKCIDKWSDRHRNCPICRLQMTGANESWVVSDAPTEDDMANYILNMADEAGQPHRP
# UniProt P62837, sequence (whole entry, looked up): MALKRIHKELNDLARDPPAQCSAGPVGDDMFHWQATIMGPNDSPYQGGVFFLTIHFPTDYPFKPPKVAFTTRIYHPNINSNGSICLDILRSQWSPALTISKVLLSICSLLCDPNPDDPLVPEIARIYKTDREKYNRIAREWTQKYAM

# Block 1
# Target: RING finger protein unkempt homolog, zinc fingers 1-6, GST-SBP tag (UNK, Homo sapiens, UniProt Q9C0B0, residues 30-357)
# UniProt Q9C0B0, sequence (30-357, looked up): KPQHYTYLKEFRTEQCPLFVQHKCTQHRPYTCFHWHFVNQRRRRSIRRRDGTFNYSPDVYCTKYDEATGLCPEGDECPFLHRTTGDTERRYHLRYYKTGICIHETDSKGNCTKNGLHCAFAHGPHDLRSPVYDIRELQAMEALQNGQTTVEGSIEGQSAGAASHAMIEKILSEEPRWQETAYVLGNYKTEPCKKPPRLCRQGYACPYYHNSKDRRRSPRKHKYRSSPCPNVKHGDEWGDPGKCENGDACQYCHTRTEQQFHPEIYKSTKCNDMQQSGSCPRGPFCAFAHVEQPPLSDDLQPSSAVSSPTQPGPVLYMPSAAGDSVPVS
# Technique: RNA Bind-n-Seq
# Form: RNA
# Medium: in vitro
# Tested at: not given
# Setting: RNA with constant flanks, human and mouse sites, ends assumed
# Relative to: input RNA pool
# Direction: higher = stronger binding
# All sequences stand within: GGGAGUUCUACAGUCCGACGAUC … CAACAGAGGAUUGAGCAUCA
Sequence,bound/input enrichment
CUUUCUUUUUGGCCGUCUUUAAAAAAAUUUUUUUUUUUAAUCUAUAAAAUAGACAAGAGCUAGUUCUACAAUGUCCAAGUCAUUCCAGCAGUCAUCUCUCAGUAGGGACUCACAGGGUCA,0.818 ratio
GGAGGAGGGAUACGUUUCCACGAUAACUUCGGCUUUGAUGACCUAGUACGAGAUUUCAAUAGCAUCUUCAGCGAUAUGGGGGCCUGGACCUUGCCUUCCCAUCCUCCUGAACUUCCAGGU,0.528 ratio
CCUUUUACAACAGAAUCUGCUUUUCAGAGAGAUGCCCUUUGCUUCUCAGAUGUAGUGCACCUUACGCUUAUUUUUCAACAGUGAAAAUGAGUCAUACAGAGGUUAAAUUAAAAAUACCUU,0.348 ratio
GUGCCUUCCCAAAUUGGUAAUCUGGAAGCCUUGAGAGACUUCAAUGUAAGAAGAAAUCAUCUUCUACGCUUGCCUGAAGAGCUGGCAGAGGUGCCUUUGAUACGGCUCGACUUCUCGUGC,0.137 ratio
GGUUUUGGCGCUCAGAUACCUCCUCAGUGGCAGGUAUCACAUGAAUUUCCAAUGAACUUCAACCCAUCCAAUCCCUACUGCAAUGGAAUCCAAGGCAUUGUAGAGGCGUAUCGGUCUUGU,0.14 ratio
GAGUGCCUUGAGGUAUACACAUGAAAACCAGGUUUCAAUGGUUGACAGAGUAGAGUAUUUAUACCAAGAGGGUAGAGGCGAAAGAAUUGGGUGUUCAAAGCCAGUCUUGACUUGAAGCAA,0.635 ratio
GCCCGGAAAACUGUGAAAAAAAUACUUAGUGACAUUGGGUUGGAAUACUGUAAAGAACAUAUAGAAGAUUUUAAACAAUUUGAACCUAAUGACUUUUAUUUGAAAAACACUACAUGGGAG,1.16 ratio
GCUGUUAUCUAUGCGGGUGUAAGGGGAUAUCUUGAUAAACUGGAGCCCAGCAAGAUUACAAAGUUUGAGAAUGCUUUCUUGUCUCAUGUCGUCAGCCAGCACCAAGCCUUGUUGGGCACU,0.143 ratio

# Block 2
# Target: TAR DNA-binding protein 43, full length, His tag (TARDBP, Homo sapiens, UniProt Q13148, residues 1-414)
# Technique: RNA Bind-n-Seq
# Form: RNA
# Medium: in vitro
# Tested at: 20 nM
# Setting: 6-mer, flanks averaged, single round
# Added: 150 mM KCl
# Relative to: input library
# Direction: higher = stronger binding
Sequence,6-mer enrichment (R)
GGGAAU,2.01
UUUAAG,0.66
CCUAUG,0.677
UUGACA,0.698
CUAAGC,0.634
AUGGCU,0.767
UAGUGG,1.56
CAAAGC,0.633

# Block 3
# Target: Ras GTPase-activating protein-binding protein 1, RRM domain (G3BP1, Homo sapiens, UniProt Q13283)
# UniProt Q13283, sequence (whole entry, looked up): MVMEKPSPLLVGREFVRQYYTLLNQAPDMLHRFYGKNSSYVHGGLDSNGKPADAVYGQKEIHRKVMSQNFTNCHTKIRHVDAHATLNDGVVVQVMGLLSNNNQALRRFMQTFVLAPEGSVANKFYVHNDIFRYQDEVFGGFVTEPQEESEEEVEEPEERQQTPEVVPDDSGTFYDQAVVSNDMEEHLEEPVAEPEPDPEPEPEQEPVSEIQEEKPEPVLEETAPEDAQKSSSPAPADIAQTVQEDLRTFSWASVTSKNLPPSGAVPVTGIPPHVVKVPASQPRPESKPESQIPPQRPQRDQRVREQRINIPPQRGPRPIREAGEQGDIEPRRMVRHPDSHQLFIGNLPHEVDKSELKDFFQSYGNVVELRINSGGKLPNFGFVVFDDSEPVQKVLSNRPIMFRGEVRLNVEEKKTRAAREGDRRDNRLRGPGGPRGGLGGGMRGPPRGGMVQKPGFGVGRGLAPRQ
# Technique: RNA Bind-n-Seq
# Form: RNA
# Medium: in vitro
# Tested at: 1 µM
# Setting: whole 134-nt RNA, ends assumed
# Added: 150 mM KCl
# Relative to: input library
# Direction: higher = stronger binding
# All sequences stand within: GGGAGUUCUACAGUCCGACGAUC … UGGAAUUCUCGGGUGUCAAGG
Sequence,log2 enrichment
CCUGUGCUACACAUCGUAUGUACCGAAUCGGGUUUUUUGGUUUUUUGGGGUUUUUUGGGGAAAGUAUUAUGUUACGCCGUUCGGAUCUGC,-0.364
CACAGACAACACGCACCCACACAGACACAGAGGGAAGGGGUUCGGAUGGGGACAGGGUGCACAGCAGGGCGGGGUAGGACCCCAGCCCCU,0.521
UCCUGUGCUACACAUCGUAUGUACCGAAUCGGGGUUUUUUUGGGGAAAGGGGAAAGGGGAAAGUAUUAUGUUACGCCGUUCGGAUCUGCA,0.661
ACCAUGCAGGUGGGCAUCUUUGGGAAGUGGGGCAAGGGGGGGAUAGGGAGGGGGGUAACACUUUUGGAACAGGUGGUCCCAGGUCGUUUC,1.09
UUGUGGUAUUUUAUUUACUUAUUUUUUUAAAUCUUCCAUUACAGCCAUGCCUUUCUUGGACAUCCAGAAAAGGUUCGGCCUUAACAUAGA,-1.24
UCCUGUGCUACACAUCGUAUGUACCGAAUCGGUUUUUUGGGGUUUUUUGGGUUUUUUGGAAAGUAUUAUGUUACGCCGUUCGGAUCUGCA,-0.0746
GGGGACGGCAAAACAGAACAGAAAGGCGGAGAUAAAAAGAGGGGUGUUAAAAGACCACGAGAAGAUCAUGGCCGUGGAUAUUUUGAGUAC,0.0964
GCAGGAAGUAAAAACAAAUGGAAAUGCUUCGGAUAGUGGCAGGGGUGGGGGUUGCUAAGGAAAGGGUGGGAUGAGAGUGGGUAAAGAGUU,0.841

# Mixed results
Substance,target,assay,test system,conditions,scale,measurement,value
RNF141 RING domain (UniProt Q8WVD5),UBE2D2 UBC core domain (UniProt P62837),yeast two-hybrid,yeast,mostly zero background,"relative to: not given, higher = stronger interaction",lacZ reporter activity,0
